Measured values of several laboratories.
Numbered parts are unrelated; each lists some results of a single study.

Block 1
Target: Sal-like protein 4, full length isoform B (SALL4, Homo sapiens, UniProt Q9UJQ4-2, residues 1-616)
Technique: universal PBM
Form: double-stranded DNA, one strand shown
Matrix: in vitro
Concentration: not given
Setting: 8-mer, flanks averaged, mean of replicates
Direction: higher = stronger binding
Residues (chain): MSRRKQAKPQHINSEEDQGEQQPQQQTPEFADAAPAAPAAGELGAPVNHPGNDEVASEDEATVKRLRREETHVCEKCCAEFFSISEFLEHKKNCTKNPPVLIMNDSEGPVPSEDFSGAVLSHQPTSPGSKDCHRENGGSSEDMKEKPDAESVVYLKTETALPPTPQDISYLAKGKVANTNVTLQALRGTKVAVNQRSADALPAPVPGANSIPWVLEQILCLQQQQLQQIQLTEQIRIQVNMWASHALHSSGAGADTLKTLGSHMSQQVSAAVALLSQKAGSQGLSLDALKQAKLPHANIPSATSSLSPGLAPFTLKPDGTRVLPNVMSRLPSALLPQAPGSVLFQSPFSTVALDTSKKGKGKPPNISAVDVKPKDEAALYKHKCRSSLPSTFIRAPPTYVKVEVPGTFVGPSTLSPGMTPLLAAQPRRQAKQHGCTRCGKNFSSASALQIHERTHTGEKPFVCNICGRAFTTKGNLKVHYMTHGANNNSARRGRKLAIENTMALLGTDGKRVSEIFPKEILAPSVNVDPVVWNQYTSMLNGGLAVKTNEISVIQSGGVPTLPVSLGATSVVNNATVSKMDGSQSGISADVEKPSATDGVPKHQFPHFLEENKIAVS
| Strand | E-score |
| --- | --- |
| CAGATCCG | -0.167 |
| ACGGATCC | -0.301 |
| CAACAGGG | -0.185 |
| CTGTAAAA | 0.117 |
| TACACGTA | 0.164 |
| ATTCTATC | 0.225 |
| CCAACACC | -0.275 |
| AAAAGTGA | 0.233 |
| GCCGGTGA | -0.203 |
| CTTGTACC | -0.00354 |
| CACATCCG | -0.028 |
| AACGGCAT | 0.143 |
| CTCGAACC | -0.269 |
| AAAACTTC | 0.196 |
| GAGAAGGC | -0.197 |
| ATAAAGGA | 0.232 |
| GACATGCC | -0.0092 |
| CGACACGC | -0.133 |
| ATAATACG | 0.286 |
| TACACAGA | 0.227 |
| CAGGGCGG | -0.22 |
| AGGTTAAC | 0.121 |
| GACACCAC | -0.292 |
| CGCTCGTC | -0.195 |
| GAGCAACA | -0.105 |

Block 2
Target: Interferon regulatory factor 5, full length, phosphomimetic (IRF5, Homo sapiens, UniProt Q13568-2, residues 1-514, S451D/S453D/S456D/S462D)
Technique: protein-binding microarray
Form: double-stranded DNA, one strand shown
Matrix: in vitro
Concentration: 940 nM top
Setting: 60-bp whole probe
With: salmon DNA 0.4 mg/ml
Reference: random background probes
Direction: higher = stronger binding
All sequences stand within: GCCTAGCAC … GTCTTGATTCGCTTGACGCTGCTG
| Strand | fitted relative affinity |
| --- | --- |
| TTAGGTATCCATTTCCTTTAGTGCTAG | 0.679 z-score |
| GACAGTTCCGGTTTCGGGACGTGCTAG | 6.21 z-score |
| GACGGTATCCGTTTCCTGACGTGCTAG | 0.559 z-score |
| TTAGGTACCGGGTATCGGTTAGTGCTA | 2.95 z-score |
| TTGGAACTGAGACTGGATTAGTGCTAG | -0.0528 z-score |
| AGAGCTATCACTATTCTAGGGTGCTAG | 0.0389 z-score |
| GACGATTCCAGTTTCGAGGCGTGCTAG | 4.31 z-score |
| GACGGTATCGGGTTTCGGGAGGTGCTA | 5.45 z-score |
| TTAGGACTGGGACTGGGCTAGTGCTAG | -0.684 z-score |
| GATGGTATCGACTATCGGGACGTGCTA | 5.68 z-score |
| GACGGACTGAGGTTTCGGGACGTGCTA | 1.4 z-score |
| TGACTTTTGAGAGATGGAAACGTGCTA | -0.0024 z-score |
| TCACCTACAGGTTCTCTGACTGTGCTA | 0.0139 z-score |
| TTCTACTTCTCTTTTGGCTTGTGCTAG | 1.61 z-score |
| GACGGACAGGGTTTCGGGACGTGCTAG | 1.65 z-score |
| GACGATATCGGGTTTCAAGACGTGCTA | 0.378 z-score |
| TTAGGTATCCTTATCCTATAGTGCTAG | 0.627 z-score |
| TTAGGTATCCTTATCTTTTAGTGCTAG | 0.519 z-score |
| CGTAAGCAAAAATGATTGGTGTGCTAG | -0.198 z-score |

Block 3
Target: Histone acetyltransferase KAT6A, winged helix 1, GST fusion (KAT6A, Homo sapiens, UniProt Q92794, residues 1-85)
Technique: protein binding microarray
Form: double-stranded DNA, one strand shown
Matrix: in vitro
Concentration: not given
Setting: 8-mer, flanks averaged, mean of 2 arrays, mostly near background
Reference: not given
Direction: higher = stronger binding
Construct (chain): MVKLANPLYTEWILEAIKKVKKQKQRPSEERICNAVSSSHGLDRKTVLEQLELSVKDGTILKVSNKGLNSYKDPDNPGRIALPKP
| Strand | E-score |
| --- | --- |
| ATTATTTG | -0.259 |
| AGTTACAG | -0.216 |
| CTTCCCCA | -0.148 |
| CAGGCTCG | 0.0677 |
| GGGGTTGA | 0.00553 |
| AAATGTGA | -0.0106 |
| TACCCCGA | 0.191 |
| ACCCTACA | -0.308 |
| GGTGCTTA | 0.0431 |
| CAAGGTCC | -0.0287 |
| AAGGACAG | -0.0471 |
| ACATTCCA | -0.14 |
| AAAAGACG | -0.0307 |
| GAAAATTA | -0.184 |
| AGGCATCA | -0.237 |
| AAGTAGAC | -0.208 |
| AGCTCATG | -0.0562 |
| AATCGGCG | 0.336 |
| AATTGAGG | -0.177 |
| CTTGGGAA | -0.141 |
| ATTGTTGG | -0.149 |
| CAACGGCG | 0.401 |
| CGGGGCGA | 0.138 |
| CTTGCTTA | -0.126 |

Block 4
Target: RNA binding protein fox-1 homolog 2, RRM domain, GST-SBP tag (RBFOX2, Homo sapiens, UniProt O43251-10, residues 100-194)
Technique: RNA Bind-n-Seq
Form: RNA
Matrix: in vitro
Concentration: 365 nM
Setting: natural RNA segment, single round, ends assumed
Reference: no-protein control
Direction: higher = stronger binding
Construct (chain): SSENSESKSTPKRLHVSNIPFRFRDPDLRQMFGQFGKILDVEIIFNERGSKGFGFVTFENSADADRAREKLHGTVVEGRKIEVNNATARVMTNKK
| Strand | RBNS enrichment (R) |
| --- | --- |
| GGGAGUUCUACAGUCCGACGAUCUUUUGUUUUGUUUUAAUGGCUCAUUUGUAAAAUUGUCCUAAUUUUUCCUAGCUUUCAGCCAUUAGAAACUCUUUUAAUAGUUCCUUUUGAGUUGUGAGCUCUUCUUCUGUUGGAAUUCUCGGGUGCCAA | 0.539 |
| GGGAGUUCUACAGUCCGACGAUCUGCGCUUAAUCCCUGCCUUUGAAAAAUGGGCCAAUACACAACACAGACAAUAAUUUGAAGCGUCUGUAUUCAGCAAAGAUAAAUACAGCAGUCCAGUCUAUAGGUGCUCUUGGAAUUCUCGGGUGCCAA | 0.368 |
| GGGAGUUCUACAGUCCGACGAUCAGUAGGACCAGGCCACCGCUAGUGCUUGUGGAGAUCACAGCCCCACCCUUGUCCCUCAGCAACAUCCCAUCUAAGCAUUCCACACUGCAGGGAGGAGUGGUACUUAAGCUUGGAAUUCUCGGGUGCCAA | 0.556 |
| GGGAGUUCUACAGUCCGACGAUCGCAAUGGAUAUAAAUGUACUGUGAGUCUCUCGGUUCAGUAUUAGGUUCACUUUAAUUUAUUUAUGCUGUAAGUUAUUUUUGCUUCCUUCUCCUGGACCCACUUCCAGUCCUGGAAUUCUCGGGUGCCAA | 0.335 |
| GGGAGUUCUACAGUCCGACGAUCUCUUUAAACAGUUCUGAUGUAAUUUCUCAACAAAAUGUGGCUUUUAGCCUGUCAGUGAUCUAUUGGACCAAACCUUCUGCACACUCGGCCAGUUCCCUCUCCAAUGUCCGUGGAAUUCUCGGGUGCCAA | 0.232 |
| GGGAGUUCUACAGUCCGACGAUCUCGUGUGGGGAGCUUGCUCCCCCAGGGGAGAGGCCCCUUUACCUCAGUGGAUCCUGUUAAGGAGUGCUUCCAGCCUCAGCCUGGGCCCCUCCCACCUGGCAUGGUAAGGGUGGAAUUCUCGGGUGCCAA | 5.02 |
| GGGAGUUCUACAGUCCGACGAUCUACAGUUGUCAGAAGUGACUCAUUCGCUUCAUUUGUGAUGAUUUUUUUUUAAUCUUCCUCUGUUAGCCCACAGGACAUGUUUUGGGGAAAAUGAUACUUGUAAAUCUUCUUGGAAUUCUCGGGUGCCAA | 0.367 |
| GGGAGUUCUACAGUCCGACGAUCCCUGGGGAAACCCUUGGGGAAAAAAAAACAGUUCCUAAGUAGUGUGCCUGUCAACUUUGCAGACUGCUUUUGGCUUCUGGAUGCGCUCCUUCAGUACACAUCCUAUGGCGUGGAAUUCUCGGGUGCCAA | 0.263 |

Single results of other studies
| Molecule | target | assay | system | scale | endpoint | value |
| --- | --- | --- | --- | --- | --- | --- |
| SFEPRNLLSLFED | human cyclin E1 | cyclin docking binding, deep mutational scanning | peptide, yeast cyclin E1-Cln2 system | direction not given | score relative, wild type, peptide | 0 |

Some of these lines once more (block 1):
| Strand | E-score |
| --- | --- |
| AAAACTTC | 0.196 |
| GAGAAGGC | -0.197 |
| ATAAAGGA | 0.232 |
| GACATGCC | -0.0092 |
| CGACACGC | -0.133 |
| ATAATACG | 0.286 |
| TACACAGA | 0.227 |
| CAGGGCGG | -0.22 |
| AGGTTAAC | 0.121 |
